# Published values pooled from the literature.
# Each numbered part is a random draw from the data of one study; scales do not carry over between parts.

# Series 1
# Target: Histone acetyltransferase KAT6A, winged helix 2, GST fusion (KAT6A, Homo sapiens, UniProt Q92794, residues 85-181)
# Technique: protein binding microarray
# Form: double-stranded DNA, one strand shown
# Sample: in vitro
# Tested at: not given
# Setting: 8-mer, flanks averaged, mean of 2 arrays, mostly near background
# Reference: not given
# Direction: higher = stronger binding
# Residues (chain): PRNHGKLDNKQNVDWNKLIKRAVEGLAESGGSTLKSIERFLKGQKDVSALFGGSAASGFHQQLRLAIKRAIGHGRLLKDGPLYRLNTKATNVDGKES
Oligonucleotide,E-score
ATACGTAA,-0.142
ATAGAAGG,-0.147
AATAAATT,0.0628
AGTTCACA,-0.103
GAAATAAC,0.0712

# Series 2
# Target: Prothrombin, mature alpha-thrombin (F2, Homo sapiens, UniProt P00734)
# Technique: aptamer microarray, sandwich
# Form: DNA with 2'F-ANA
# Sample: in vitro
# Tested at: 200 nM
# Setting: whole 15-mer aptamer, many near background
# Added: Cy3 exosite-II aptamer, 400 nM
# Direction: higher = stronger binding
# Oligonucleotide: GGTTGGTGTGGTTGG
Modification,mean fluorescence intensity [a.u.]
2'F-ANA at 6,578
2'F-ANA at 1 2 3 5 6 7 8 9 10 11 12 13,68.7
2'F-ANA at 1 2 3 10 12 13 14 15,67.2
2'F-ANA at 1 2 3 5 10 12 14 15,74.8
2'F-ANA at 1 2 6 7 13 14 15,53.3

# Series 3
# Target: TAR DNA-binding protein 43, full length, His tag (TARDBP, Homo sapiens, UniProt Q13148, residues 1-414)
# Technique: RNA Bind-n-Seq
# Form: RNA
# Sample: in vitro
# Tested at: 20 nM
# Setting: 6-mer, flanks averaged, single round
# Added: 150 mM KCl
# Reference: input library
# Direction: higher = stronger binding
Oligonucleotide,6-mer enrichment (R)
GAUGGG,4.03
UACGAA,0.7
CCGAUG,0.834

# Mixed results
Molecule,target,test,system,setting,how to read,quantity,result
"PhoQ, residues 284 288 289 292 302 303 QWQEDG","PhoP, residues 12 14 15 18 19 NQAHL (Escherichia coli, UniProt P23836)","Sort-seq, measured: YFP reporter",E. coli,"PhoQ-PhoP variant library, added: 10 µM Mg2+","reference: high Mg2+ state, higher = stronger signaling",fold induction,1.58

# Some of these lines once more (series 1):
Oligonucleotide,E-score
GAAATAAC,0.0712
